Results pooled from the literature.
Protocols differ between the studies behind these lines. ± marks the error that the study gave.

SMILES	target or system	test	test system	setting	scale	quantity	value
CNS(=O)(=O)Nc1nccc(Cc2c(C)c3ccc(Oc4ncccc4F)cc3oc2=O)c1F	KYSE-520	cell viability	–	7 days	–	IC50	0.00803 µM
O=c1c(-c2cnn(-c3ccccc3)c2)c(C(F)(F)F)oc2c(O)c(O)ccc12	NB-4	apoptosis, annexin V flow cytometry	–	–	–	EC50	~7 µM
COC(=O)[C@H](C)NC(=O)[C@H](C)NC(=O)c1csc(-c2cccnc2)n1	SQ20B	cell growth or viability	–	–	–	EC50	> 30 µM
Nc1ncc(-c2cc(-c3cnn(CC(F)(F)F)c3)ncc2F)nc1C(=O)NC1CNCC(F)C1 (stereo not drawn)	EPHB6	KINOMEscan	–	1 µM	reference: DMSO control	remaining binding	100%
COc1ccc(NC(=O)CSc2nc3c(oc4ccccc43)c(=O)n2Cc2ccco2)cc1Cl	LDR	silenced CMV-GFP reporter derepression, qHTS	–	–	–	EC50	3.16 µM
CN[C@H]1CCN(C(=O)c2c(C)cc(C(F)(F)F)nc2-c2ccnc3cc(CN4C(=O)C5C(C4=O)C5(C)C)sc23)C1 (stereo partly drawn)	SW480	Wnt/β-catenin reporter, inhibitor, TOPFlash/FOPFlash	–	24 h	–	EC50	0.15 µM
COC1CN([C@H]2CC[C@H]([C@@]3(C)Oc4c(Cl)cc(C(=O)NCc5c(SC)cc(C)[nH]c5=O)c(C)c4O3)CC2)C1	–	RNA-seq, measured: HAS1 mouse homolog	mouse, HT-1376 xenograft, whole blood	dose not given	reference: vehicle	log2 fold change	2.4
CCc1ccc(-c2nc(CSCC(=O)NCCc3ccccc3)c(C)o2)cc1	HEK293T	Wnt Super-TOPFlash reporter, inhibitor	–	24 h	–	EC50	39 µM
CC(C)(C)c1cc(-c2ccc3cccnc3n2)nc(-c2ccc3cccnc3n2)c1.COc1ccncc1.[Cl-].[Cl-].[Ru+2].c1ccc2cc3nc4c5cccnc5c5ncccc5c4nc3cc2c1	SK-MEL-28	photocytotoxicity	–	light 633 nm, oxygen 1%	–	EC50	33.4 ± 5.8 µM
Cc1ncsc1-c1ccc(C(C)NC(=O)C2CC(O)CN2C(=O)C(NC(=O)CCCCCCCCCCN2CCCC(Nc3ncc(Cl)c(Nc4ccccc4S(=O)(=O)C(C)C)n3)C2)C(C)(C)C)cc1 (stereo not drawn)	22Rv1	RNA-seq, measured: PAGR1 mRNA	–	concentration not given	reference: DMSO	log2 fold change	-1.48
Cc1ccncc1.[Cl-].[Cl-].[Ru+2].c1cc(-c2ccc3cccnc3n2)nc(-c2ccc3cccnc3n2)c1.c1ccc2cc3nc4c5cccnc5c5ncccc5c4nc3cc2c1	SK-MEL-28	cell viability	–	dark, normoxia 18.5 % oxygen	–	EC50	69.4 ± 0.6 µM
COc1nc(Nc2nc(O)c3ccccc3n2)nc2ccc(C)cc12	LDR	silenced CMV-GFP reporter derepression, qHTS	–	–	–	EC50	3.98 µM
C=C(NC(=O)c1csc(-c2nc3c(cc2O)-c2nc(cs2)C(=O)NC(C(C)O)C(=O)NC(=C(C)OC)c2nc(cs2)C(=O)NC2c4nc(cs4)C(=O)NC(COC(=O)c4c5c6c(cccc6n4O)COC(=O)C(OC4CC(C)(O)C(N(C)C)C(C)O4)C2OC5)c2nc-3cs2)n1)C(N)=O (stereo not drawn)	–	–	cynomolgus monkey, both sexes, plasma	intravenous infusion, 3 mg/kg multiple doses, day 7	–	Tmax	12 min
C=C(NC(=O)c1csc(-c2cccnc2)n1)C(=O)NC(=C)C(=O)OC	SQ20B	cell growth or viability	–	–	–	EC50	4.9 µM
C(=N\Nc1nc(-c2ccccn2)nc2ccccc12)/c1ccccc1	LDR	silenced CMV-GFP reporter derepression, qHTS	–	–	–	EC50	10 µM
C=CC(=O)Nc1cccc(Cn2ncc3cnc(Nc4cnn(CCOC)c4)nc32)c1	IRAK1 human	binding, KINOMEscan	–	100 nM	lower = stronger binding	percent of control	74%
Cc1ccc(C(C)C)c(OCc2ccc(C(=O)N/N=C/c3cccc(O)c3O)cc2)c1	LDR	silenced CMV-GFP reporter derepression, qHTS	–	–	–	EC50	1.26 µM
[Cl-].[Cl-].[Ru+2].c1ccc(-c2ccccn2)nc1.c1ccc(-c2ccccn2)nc1.c1ccc2cc3nc4c5cccnc5c5ncccc5c4nc3cc2c1	SK-MEL-28	phototoxicity, resazurin	–	normoxia, together with: green light 523 nm, 100 J/cm2, 20 mW/cm2	–	EC50	0.165 ± 0.004 µM
O=c1[nH][nH]c(=S)n2nc(-c3ccccc3)cc12	SH-SY5Y	cytoprotection, FDA/PI staining	–	together with: 0.8 µM p-tau	–	EC50	1.78 µM
CC(=O)N(C)Cc1cccc(-c2cc3c(c(C(F)(F)F)c2)CCCC3N(C)C(=O)CCOCCOCCC(=O)N(C)C2CCCc3c2cc(-c2cccc(CN(C)C(C)=O)c2)cc3C(F)(F)F)c1 (stereo not drawn)	CHO CHOP::luciferase reporter	CHOP luciferase reporter, activator	–	18 h	–	EC50	13 µM
CCN(CC)CCCNC(=O)CSc1c2c(nc3cc(Cl)ccc13)CCCC2	LDR	silenced CMV-GFP reporter derepression, qHTS	–	–	–	EC50	0.398 µM
COc1ccc(-n2nc([N+](=O)[O-])/c(=N/c3cc(C)ccc3C)n2O)cc1	SH-SY5Y	cytoprotection, FDA/PI staining	–	together with: 0.8 µM p-tau	–	EC50	2.79 µM
CCCC[C@H](NC(=O)CCCCCCCNC(=O)CN1CCN(CC(=O)O)CCN(CC(=O)O)CC1)C(=O)N[C@H]1CC(=O)NCCCC[C@@H](C(N)=O)NC(=O)[C@H](Cc2c[nH]c3ccccc23)NC(=O)[C@H](CCCNC(=N)N)NC(=O)[C@@H](Cc2ccccc2)NC(=O)[C@H](Cc2c[nH]cn2)NC1=O [technetium-99m labelled]	–	–	C57 mouse, brain	intravenous, 0.037 MBq, 4 h	–	tissue uptake	0.01 %ID/g
CN1CCCNC(=O)c2cccc(c2)C(=O)NCCCN(C)CCCNc2cccc3c2C(=O)c2cccc(c2C3=O)NCCC1	SAS	RNA-Seq, measured: EXOC3 mRNA	–	1 µM, 6 h	reference: untreated cells	log2 fold change	-0.46

Excerpt of the above:
SMILES	target or system	test	test system	setting	scale	quantity	value
COc1ccc(-n2nc([N+](=O)[O-])/c(=N/c3cc(C)ccc3C)n2O)cc1	SH-SY5Y	cytoprotection, FDA/PI staining	–	together with: 0.8 µM p-tau	–	EC50	2.79 µM
CCCC[C@H](NC(=O)CCCCCCCNC(=O)CN1CCN(CC(=O)O)CCN(CC(=O)O)CC1)C(=O)N[C@H]1CC(=O)NCCCC[C@@H](C(N)=O)NC(=O)[C@H](Cc2c[nH]c3ccccc23)NC(=O)[C@H](CCCNC(=N)N)NC(=O)[C@@H](Cc2ccccc2)NC(=O)[C@H](Cc2c[nH]cn2)NC1=O [technetium-99m labelled]	–	–	C57 mouse, brain	intravenous, 0.037 MBq, 4 h	–	tissue uptake	0.01 %ID/g
